Published values collected from several papers.
Compare with care: the assays were run in different laboratories. Numbers after ± are the reported error.
U2AF2: U2AF2 148-342 (Homo sapiens, UniProt P26368)
Sequence of UniProt P26368 (whole entry, looked up): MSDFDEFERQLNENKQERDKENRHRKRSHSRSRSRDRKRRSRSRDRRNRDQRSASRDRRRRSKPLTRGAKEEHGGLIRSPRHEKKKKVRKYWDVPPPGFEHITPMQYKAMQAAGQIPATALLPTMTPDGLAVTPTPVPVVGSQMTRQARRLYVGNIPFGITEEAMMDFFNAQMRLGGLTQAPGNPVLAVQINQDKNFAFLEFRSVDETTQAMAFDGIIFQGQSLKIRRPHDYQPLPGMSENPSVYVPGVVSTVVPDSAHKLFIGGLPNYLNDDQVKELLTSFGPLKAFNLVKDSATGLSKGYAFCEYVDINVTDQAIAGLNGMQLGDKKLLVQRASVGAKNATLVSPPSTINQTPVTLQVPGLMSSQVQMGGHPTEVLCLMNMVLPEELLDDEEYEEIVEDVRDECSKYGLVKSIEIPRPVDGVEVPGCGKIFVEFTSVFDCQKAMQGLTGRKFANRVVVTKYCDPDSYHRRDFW
B1: human Nup88; sequence looked up; chain AAAEGPVGDGELWQTWLPNHVVFLRLREGLKNQSPTEAEKPASSSLPSSPPPQLLTRNVVFGLGGELFLWDGEDSSFLVVRLRGPSGGGEEPALSQYQRLLCINPPLFEIYQVLLSPTQHHVALIGIKGLMVLELPKRWGKNSEFEGGKSTVNCSTTPVAERFFTSSTSLTLKHAAWYPSEILDPHVVLLTSDNVIRIYSLREPQTPTNVIILSEAEEESLVLNKGRAYTASLGETAVAFDFGPLAAVPKTLFGQNGKDEVVAYPLYILYENGETFLTYISLLHSPGNIGKLLGPLPMHPAAEDNYGYDACAVLCLPCVPNILVIATESGMLYHCVVLEGEEEDDHTSEKSWDSRIDLIPSLYVFECVELELALKLASGEDDPFDSDFSCPVKLHRDPKCPSRYHCTHEAGVHSVGLTWIHKLHKFLGSDEEDKDSLQELSTEQKCFVEHILCTKPLPCRQPAPIRGFWIVPDILGPTMICITSTYECLIWPLLSTVHPASPPLLCTREDVEVAESPLRVLAETPDSFEKHIRSILQRSVANPAFLKASEKDIAPPPEECLQLLSRATQVFREQYILKQDLAKEEIQRRVKLLCDQKKKQLEDLSYCREERKSLREMAERLADKYEEAKEKQEDIMNRMKKLLHSFHSELPVLSDSERDMKKELQLIPDQLRHLGNAIKQVTMKKDYQQQKMEKVLSLPKPTIILSAYQRKCIQSILKEEGEHIREMVKQINDIRNHVNF
B2: NUDT12 (Homo sapiens, UniProt Q9BQG2); chain MSSVKRSLKQEIVTQFHCSAAEGDIAKLTGILSHSPSLLNETSENGWTALMYAARNGHPEIVQFLLEKGCDRSIVNKSRQTALDIAVFWGYKHIANLLATAKGGKKPWFLTNEVEECENYFSKTLLDRKSEKRNNSDWLLAKESHPATVFILFSDLNPLVTLGGNKESFQQPEVRLCQLNYTDIKDYLAQPEKITLIFLGVELEIKDKLLNYAGEVPREEEDGLVAWFALGIDPIAAEEFKQRHENCYFLHPPMPALLQLKEKEAGVVAQARSVLAWHSRYKFCPTCGNATKIEEGGYKRLCLKEDCPSLNGVHNTSYPRVDPVVIMQVIHPDGTKCLLGRQKRFPPGMFTCLAGFIEPGETIEDAVRREVEEESGVKVGHVQYVACQPWPMPSSLMIGCLALAVSTEIKVDKNEIEDARWFTREQVLDVLTKGKQQAFFVPPSRAIAHQLIKHWIRINPNL
B3: enzyme (Lactiplantibacillus plantarum, UniProt Q06115); chain CTAITYQSYNNYFGRNFDYEISYNEMVTITPRKYPLVFRKVENLDHHYAIIGITADVESYPLYYDAMNEKGLCIAGLNFAGYADYKKYDADKVNITPFELIPWLLGQFSSVREVKKNIQKLNLVNINFSEQLPLSPLHWLVADKQESIVIESVKEGLKIYDNPVGVLTNNPNFDYQLFNLNNYRALSNSTPQNSFSEKVDLDSYSRGMGGLGLPGDLSSMSRFVRAAFTKLNSLSMQTESGSVSQFFHILGSVEQQKGLCEVTDGKYEYTIYSSCCDMDKGVYYYRTYDNSQINSVSLNHEHLDTTELISYPLRSEAQYYAVN
B4: PYCR2 R251C (Homo sapiens, UniProt Q96C36); chain MSVGFIGAGQLAYALARGFTAAGILSAHKIIASSPEMNLPTVSALRKMGVNLTRSNKETVKHSDVLFLAVKPHIIPFILDEIGADVQARHIVVSCAAGVTISSVEKKLMAFQPAPKVIRCMTNTPVVVQEGATVYATGTHALVEDGQLLEQLMSSVGFCTEVEEDLIDAVTGLSGSGPAYAFMALDALADGGVKMGLPRRLAIQLGAQALLGAAKMLLDSEQHPCQLKDNVCSPGGATIHALHFLESGGFCSLLINAVEASCIRTRELQSMADQEKISPAALKKTLLDRVKLESPTVSTLTPSSPGKLLTRSLALGGKKD
B5: enzyme K234A (Methanosarcina mazei, UniProt Q8PVB1); chain MSEQRSVPLREHLLALKPCRHGGLIQETSETYGIPENEILDFSANFNPLGSPFDYPENGLNFEDIIKKSCGKLLEYPDNRYVEFREAAARFVGLGVTPQSIVPGNGSTEIVRLVVESVIEKGDKVLLPWPTFGEYEMQCRITGAEPVCPSQEEVNTLPDEVLEEAKILFICNPNNPTGKLRTREELKVLAERCREHKTLLYVDEAFIELSDPSQSVADLPAENNYVFVMRSLTADFAIPGIRMGFGIAPPAMADILNTARLSWNLGAIANNTGIALLNIEGGIDSPYLKKAREMILKEGETLKAKIDRIRGFEAGEVNVNFILVDVSKFMLNSSELTARLAARGVLVRDCVSFHGLGKNYIRVAVRTEKENDRLIAAIGDVITEWGREQAKNELQHVIEKASEEGIGGRKTCEYYPCHFEGQNCTFCFCPFYPCENEKTGGKWIQSSRGGRVWSCVDCHLVHKKEIAQKILDCLMHEGDTDELVKVAWKEVMEPIL
B6: enzyme (Azotobacter vinelandii, UniProt C1DN94); chain MSESPLRLDRLRDFVSALGELLDRHPDEESVLREGRSLLGELVRHDDWLPEEFAQPDPERYQQYLLHADSRQRFSVVSFVWGPGQTTPVHDHRVWGLIGMLRGAEDAQSFELGAEGLRPIGDPVRLSPGQVEAVSPRIGDIHRVFNASPDQPSISIHVYGANIGAVRRAVYLPDGSEKPFISGYSNQFLPNIWDQSKESARP
B7: enzyme (Equus caballus, UniProt P00327); chain STAGKVIKCKAAVLWEEKKPFSIEEVEVAPPKAHEVRIKMVATGICRSDDHVVSGTLVTPLPVIAGHEAAGIVESIGEGVTTVRPGDKVIPLFTPQCGKCRVCKHPEGNFCLKNDLSMPRGTMQDGTSRFTCRGKPIHHFLGTSTFSQYTVVDEISVAKIDAASPLEKVCLIGCGFSTGYGSAVKVAKVTQGSTCAVFGLGGVGLSVIMGCKAAGAARIIGVDINKDKFAKAKEVGATECVNPQDYKKPIQEVLTEMSNGGVDFSFEVIGRLDTMVTALSCCQEAYGVSVIVGVPPDSQNLSMNPMLLLSGRTWKGAIFGGFKSKDSVPKLVADFMAKKFALDPLITHVLPFEKINEGFDLLRSGESIRTILTF
B8: enzyme (Staphylococcus aureus, UniProt A0A0H2XHR6); chain MQKSALFAPEKYNIISEIEKYSHIPDKKAILYHNTEGEDISVTYQQLIEQSNKVGNVLASHGLSKGDKVLIMMPRSIATYELYIAALKLGVAIIPCSEMLRTKDLQYRITHGEINAVIALEPFTVEFEKIKEYDALTKFVIAGQKDGWISLEAEKENASNKLEMADTTRDDMAILSYTSGTTGNPKAVTHCHGWGFAHLQMAPKHWLCINEDDLVWATAAPGWQKWVWSPFLSVLGSGATAFVFNGRFSPETYLELLQKYQINVLCCTPTEYRMMAKLQNLNDYDLTHLHSAVSAGEPLNREVVEQFKKYFNLTVRDGYGQTESTLLIGFLKDTPQRIGSMGKGIPGSSVTVVDDEGNSVPANTKGNIAVPLDLPALFKGYYKEPERTAKAQTGKYYITGDLAHVDDDGYFWFEGRRDDIIISSGYTIGPFEVEDALTNHPAVKECAVVAKPHDIRGNIVKAFVILQDHTAGDDTLVKELQQFVKNEVAPYKYPREIEFVDDLPKTNSGKIRRVELRDAEIEKWQQQKDSNQ
Sequence of UniProt P0A9Q9 (whole entry, looked up): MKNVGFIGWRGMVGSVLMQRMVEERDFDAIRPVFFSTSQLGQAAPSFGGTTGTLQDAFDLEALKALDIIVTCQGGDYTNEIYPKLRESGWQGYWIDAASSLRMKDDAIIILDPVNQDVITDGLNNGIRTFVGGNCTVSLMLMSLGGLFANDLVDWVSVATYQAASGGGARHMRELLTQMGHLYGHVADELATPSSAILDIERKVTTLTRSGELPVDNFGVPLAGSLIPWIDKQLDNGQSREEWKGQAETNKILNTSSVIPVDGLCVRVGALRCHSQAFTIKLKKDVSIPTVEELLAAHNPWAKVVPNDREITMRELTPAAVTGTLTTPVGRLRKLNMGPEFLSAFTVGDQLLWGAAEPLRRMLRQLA
Sequence of UniProt Q978S7 (whole entry, looked up): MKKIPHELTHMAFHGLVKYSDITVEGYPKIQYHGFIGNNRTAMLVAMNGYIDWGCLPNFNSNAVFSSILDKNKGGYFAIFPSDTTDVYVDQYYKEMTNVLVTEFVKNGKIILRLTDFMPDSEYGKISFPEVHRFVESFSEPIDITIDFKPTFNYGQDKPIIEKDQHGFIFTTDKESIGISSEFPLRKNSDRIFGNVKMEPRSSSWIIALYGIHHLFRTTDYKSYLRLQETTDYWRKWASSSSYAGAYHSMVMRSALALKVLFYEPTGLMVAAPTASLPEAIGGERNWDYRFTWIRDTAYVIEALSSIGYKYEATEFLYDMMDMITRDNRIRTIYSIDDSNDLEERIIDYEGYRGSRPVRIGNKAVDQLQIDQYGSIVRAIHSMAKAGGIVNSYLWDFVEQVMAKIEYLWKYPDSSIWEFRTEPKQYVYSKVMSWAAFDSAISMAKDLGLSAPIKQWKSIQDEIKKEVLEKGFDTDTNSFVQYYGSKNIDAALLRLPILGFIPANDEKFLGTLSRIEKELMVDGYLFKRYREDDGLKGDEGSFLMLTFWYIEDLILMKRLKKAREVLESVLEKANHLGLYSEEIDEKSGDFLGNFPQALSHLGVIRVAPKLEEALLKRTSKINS
Sequence of UniProt P13393 (whole entry, looked up): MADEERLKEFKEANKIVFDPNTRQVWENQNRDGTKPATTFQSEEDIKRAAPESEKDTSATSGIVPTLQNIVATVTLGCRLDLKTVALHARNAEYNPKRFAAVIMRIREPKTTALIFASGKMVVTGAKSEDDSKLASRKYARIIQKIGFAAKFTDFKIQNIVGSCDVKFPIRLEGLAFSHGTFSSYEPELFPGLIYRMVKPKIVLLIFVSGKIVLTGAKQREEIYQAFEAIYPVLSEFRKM
Sequence of UniProt P09546 (whole entry, looked up): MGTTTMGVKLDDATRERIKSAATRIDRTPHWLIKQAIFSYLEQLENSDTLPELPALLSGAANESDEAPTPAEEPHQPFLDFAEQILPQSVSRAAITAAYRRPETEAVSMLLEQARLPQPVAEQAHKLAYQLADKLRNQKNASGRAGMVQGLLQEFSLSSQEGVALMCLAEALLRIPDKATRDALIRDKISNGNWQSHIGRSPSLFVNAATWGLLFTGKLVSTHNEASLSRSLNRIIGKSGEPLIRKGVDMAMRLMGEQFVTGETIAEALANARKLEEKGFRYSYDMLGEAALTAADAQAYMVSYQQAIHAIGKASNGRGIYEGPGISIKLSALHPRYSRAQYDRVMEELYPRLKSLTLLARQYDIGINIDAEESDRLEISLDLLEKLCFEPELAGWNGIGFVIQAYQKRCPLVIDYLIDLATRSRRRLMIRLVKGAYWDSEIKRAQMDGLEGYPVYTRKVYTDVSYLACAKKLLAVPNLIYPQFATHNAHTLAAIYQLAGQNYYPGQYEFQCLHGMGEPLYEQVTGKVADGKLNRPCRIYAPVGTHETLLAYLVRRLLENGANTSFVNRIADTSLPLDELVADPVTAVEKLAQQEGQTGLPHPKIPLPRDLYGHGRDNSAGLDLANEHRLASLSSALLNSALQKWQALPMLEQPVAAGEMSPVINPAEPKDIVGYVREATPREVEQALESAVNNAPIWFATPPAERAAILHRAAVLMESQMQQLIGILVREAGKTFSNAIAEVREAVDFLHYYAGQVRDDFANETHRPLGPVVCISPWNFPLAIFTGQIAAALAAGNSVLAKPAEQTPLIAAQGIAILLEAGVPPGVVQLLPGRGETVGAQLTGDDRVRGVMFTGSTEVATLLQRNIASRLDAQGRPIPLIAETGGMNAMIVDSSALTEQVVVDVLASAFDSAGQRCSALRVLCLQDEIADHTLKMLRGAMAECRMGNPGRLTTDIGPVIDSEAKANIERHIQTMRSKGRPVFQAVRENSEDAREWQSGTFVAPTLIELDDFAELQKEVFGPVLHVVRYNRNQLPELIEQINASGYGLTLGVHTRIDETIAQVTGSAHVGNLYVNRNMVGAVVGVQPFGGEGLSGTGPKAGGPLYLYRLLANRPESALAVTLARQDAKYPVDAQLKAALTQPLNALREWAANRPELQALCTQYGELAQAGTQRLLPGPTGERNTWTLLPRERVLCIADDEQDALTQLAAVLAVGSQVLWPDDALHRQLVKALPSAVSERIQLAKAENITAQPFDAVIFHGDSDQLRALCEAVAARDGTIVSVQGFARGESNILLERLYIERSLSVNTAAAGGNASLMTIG

Substance = enzyme (Plasmodium falciparum, UniProt C0H484); target or system = Nc1ncnc2c1ncn2[C@@H]1O[C@H](COP(=O)(O)OP(=O)(O)OP(=O)(O)O)[C@@H](O)[C@H]1O; test = steady-state kinetics; conditions = added: Mn2+; quantity = kcat/Km; result = 36000 ± 3000 M⁻¹ s⁻¹
Substance = CUUUAAACG (ssRNA); target or system = U2AF2; test = sequencing of bound RNA; test system = RNA; conditions = motif only; quantity = Kd; result = 14700 nM
Substance = B1 (human Nup88); target or system = U2OS CYB5R4 knock-out; test = phosphoproteomics; conditions = concentration not given, added: cisplatin; scale = baseline: cisplatin-treated parental U2OS; quantity = phosphorylation log2 fold change; result = 7.82
Substance = B2 (NUDT12); target or system = Nc1ncnc2c1ncn2[C@@H]1O[C@H](COP(=O)(O)OP(=O)(O)OP(=O)(O)OP(=O)(O)OP(=O)(O)OC[C@H]2O[C@@H](n3cnc4c(N)ncnc43)[C@H](O)[C@@H]2O)[C@@H](O)[C@H]1O; test = steady-state kinetics; conditions = added: Mg2+; quantity = kcat/Km; result = 29 M⁻¹ s⁻¹
Substance = B3 (enzyme); target or system = C[C@H](CCC(=O)N[C@@H](Cc1ccc(O)cc1)C(=O)O)[C@H]1CC[C@H]2[C@@H]3[C@H](O)C[C@@H]4C[C@H](O)CC[C@]4(C)[C@H]3C[C@H](O)[C@]12C; test = steady-state kinetics; conditions = pH 6.2, 37 °C; quantity = kcat/Km; result = 11000 ± 1170 M⁻¹ s⁻¹
Substance = B4 (PYCR2 R251C); target or system = O=C(O)[C@@H]1CCC=N1; test = steady-state kinetics; conditions = pH 7.5, 37 °C, apparent, added: NADH 500 µM; quantity = kcat/Km; result = 2400 ± 600 M⁻¹ s⁻¹
Substance = PSMD4 (human); target or system = CYB5R4 knockout human cells; test = PP4 interaction, 3xFLAG-PP4C IP-MS; conditions = concentration not given; scale = baseline: CYB5R4 KO over parental; quantity = log2 fold change; result = -0.15
Substance = enzyme (UniProt A0A7S7NT01); target or system = CC(=O)N[C@H]1[C@H](Oc2ccc([N+](=O)[O-])cc2)O[C@H](CO)[C@@H](O[C@@H]2O[C@H](CO)[C@H](O)[C@H](O)[C@H]2O)[C@@H]1O; test = steady-state kinetics; conditions = pH 6, 45 °C; quantity = kcat/Km; result = 13000 M⁻¹ s⁻¹
Substance = spt R378K (Sphingomonas paucimobilis); target or system = CCCCCCCCCCCCCC(=O)SCCNC(=O)CCNC(=O)[C@H](O)C(C)(C)COP(=O)(O)OP(=O)(O)OC[C@H]1O[C@@H](n2cnc3c(N)ncnc32)[C@H](O)[C@@H]1OP(=O)(O)O; test = steady-state kinetics; conditions = added: PLP; quantity = kcat/Km; result = 2000 M⁻¹ s⁻¹
Substance = enzyme (Thermoplasma volcanium, UniProt Q978S7); target or system = OC[C@H]1O[C@H](O[C@H]2O[C@H](CO)[C@@H](O)[C@H](O)[C@H]2O)[C@H](O)[C@@H](O)[C@@H]1O; test = steady-state kinetics; conditions = pH 3.7, 30 °C; quantity = kcat/Km; result = 400 M⁻¹ s⁻¹
Substance = B5 (enzyme K234A); target or system = Nc1ncnc2c1ncn2[C@@H]1O[C@H](COP(=O)(O)OP(=O)(O)OP(=O)(O)O)[C@@H](O)[C@H]1O; test = steady-state kinetics; conditions = pH 8.5, 25 °C, apparent, anoxic, added: L-Thr 10 mM; quantity = kcat/Km; result = 110 ± 30 M⁻¹ s⁻¹
Substance = ATGACTGAATTCAAGGCCGGTTCTGCTAAGAAAGGTCAAGTCAATCGGTCC (dsDNA; 5'-amino-C6 primer); target or system = SPT15 full length assumed (Saccharomyces cerevisiae, UniProt P13393); test = array; test system = double-stranded DNA, one strand shown; conditions = TBP alone; quantity = Kd; result = 33.6 ± 2.48 nM
Substance = CUUAUUAGG (ssRNA); target or system = U2AF2; test = sequencing of bound RNA; test system = RNA; conditions = motif only; quantity = Kd; result = 2880 nM
Substance = B6 (enzyme); target or system = O=C(O)CCS; test = steady-state kinetics; conditions = pH 8, 25 °C, added: O2; quantity = kcat/Km; result = 72000 ± 9200 M⁻¹ s⁻¹
Substance = HNL C81L/E79H/G176S/H103V/K236M/N104A/T11G (Hevea brasiliensis); target or system = CC(=O)Oc1ccc([N+](=O)[O-])cc1; test = steady-state kinetics; conditions = pH 7.2, 21 °C; quantity = kcat/Km; result = 333 M⁻¹ s⁻¹
Substance = B7 (enzyme); target or system = NC(=O)c1ccc[n+]([C@@H]2O[C@H](COP(=O)(O)OP(=O)(O)OC[C@H]3O[C@@H](n4cnc5c(N)ncnc54)[C@H](OP(=O)(O)O)[C@@H]3O)[C@@H](O)[C@H]2O)c1; test = steady-state kinetics; conditions = pH 7, 30 °C, cofactor varied; quantity = kcat/Km; result = 4 M⁻¹ s⁻¹
Substance = putA (Escherichia coli, UniProt P09546); target or system = CC1=CC(=O)c2ccccc2C1=O; test = steady-state kinetics; conditions = pH 7.4, 20 °C, added: proline 200 mM; quantity = kcat/Km; result = 44000 ± 3100 M⁻¹ s⁻¹
Substance = B8 (enzyme); target or system = CC(C)C(=O)O; test = steady-state kinetics; conditions = pH 7.5, 37 °C; quantity = kcat/Km; result = 49000 M⁻¹ s⁻¹
Substance = asd (Escherichia coli, UniProt P0A9Q9); target or system = N[C@@H](CCC=O)C(=O)O; test = steady-state kinetics; conditions = pH 7.6, apparent, added: 1 mM NADP+; quantity = kcat/Km; result = 21 ± 9 M⁻¹ s⁻¹

For quick reference, copied from above:
Substance = HNL C81L/E79H/G176S/H103V/K236M/N104A/T11G (Hevea brasiliensis); target or system = CC(=O)Oc1ccc([N+](=O)[O-])cc1; test = steady-state kinetics; conditions = pH 7.2, 21 °C; quantity = kcat/Km; result = 333 M⁻¹ s⁻¹
Substance = putA (Escherichia coli, UniProt P09546); target or system = CC1=CC(=O)c2ccccc2C1=O; test = steady-state kinetics; conditions = pH 7.4, 20 °C, added: proline 200 mM; quantity = kcat/Km; result = 44000 ± 3100 M⁻¹ s⁻¹
Substance = B8 (enzyme); target or system = CC(C)C(=O)O; test = steady-state kinetics; conditions = pH 7.5, 37 °C; quantity = kcat/Km; result = 49000 M⁻¹ s⁻¹
